# Assay results pooled from the literature.
SMILES,test,test system,setting,quantity,value
O=C1Nc2cc3[nH]nc(-c4ccncc4)c3cc2CN1Cc1ccccc1,CTCAE v4.03,"human, relapsed or refractory advanced solid tumours","intravenous, 4.8 mg/kg, pooled schedules",patients with subretinal fluid,25%
N[C@@H]1c2ccccc2OC12CCN(c1cnc3c(N4CCCc5ncccc54)n[nH]c3n1)CC2,refers to: dyspnea,human advanced or metastatic solid tumours,"oral, dose not given, phase Ia all doses",patients with adverse event,30%
CN(C)C(=O)c1cc2cnc(Nc3ccc(N4CCNCC4)cn3)nc2n1C1CCCC1,"refers to: Infections, AESI","human, HR+/HER2− advanced breast cancer","oral, dose not given, grade 4, CTCAE v4.03",patients with adverse event,0%
COc1ncnn2ccc(-c3cnc4nc(C)n(Cc5nnc([C@@H](C)F)o5)c4c3)c12,,human,"oral, dose not given, grade 2",patients with any adverse reaction,50%
C=CC(=O)Nc1cc(Nc2nccc(Nc3cc(Cl)c(F)cc3C(C)(C)O)n2)c(OC)cc1N1CC[C@@H](N(C)C)C1,,human patients,"oral, 300 mg, treatment-emergent adverse events",patients with fatigue,21.6%
COc1ccc(-c2c(-c3ccc(C#N)c(F)c3)nc(N3CCC(N)CC3)n(C)c2=O)cc1F,refers to: respiratory failure,human patients,"oral, 60 mg, dose expansion",patients with serious TEAE,5%
CN[C@@H](C)C(=O)N[C@H]1CN(S(=O)(=O)c2cccc(S(=O)(=O)N3CC[C@H]4CC[C@@H](C(=O)NC(c5ccccc5)c5ccccc5)N4C(=O)[C@@H](NC(=O)[C@H](C)NC)C3)c2)CC[C@H]2CC[C@@H](C(=O)NC(c3ccccc3)c3ccccc3)N2C1=O,,"human, advanced solid tumours",0.3 mg,patients with treatment-related asthenia,0%
C[C@]1(O)C[C@@](N)(c2ccc(-c3nc4n(c3-c3ccccc3)COc3ccncc3-4)cc2)C1,,"human, advanced or metastatic solid tumours","dose not given, all patients",patients with grade ≥3 Hyperglycemia TEAE,5.9%
CNC(=O)c1cc(Oc2ccc(NC(=O)Nc3cc(C(C)(C)C)nn3-c3ccc4ncccc4c3)c(F)c2)ccn1,,"human, trial","oral, dose not given, all doses",patients with related serious Pancreatitis AE,2%
Cc1cn([C@H]2O[C@@H](CO[P@@](=O)(N[C@@H](C)C(=O)OC(C)C)Oc3ccccc3)[C@H](O)[C@H]2F)c(=O)[nH]c1=O,refers to: Headache,human,10 mg,patients with TEAE,0%
Cn1nc(NS(C)(=O)=O)c2c(Cl)ccc(-n3c([C@H](Cc4cc(F)cc(F)c4)NC(=O)Cn4nc(C(F)F)c5c4C(F)(F)[C@@H]4C[C@H]54)nc4nc(OCCC(F)(F)F)ccc4c3=O)c21,refers to: LDL cholesterol grade 1 increase,human,"400 mg once daily, powder in bottle",patients with laboratory abnormality,0%
Cn1cncc1-c1c(F)cncc1NC(=O)c1c(N)nn2cc(F)cnc12,,human patients,"oral, 180 mg once daily, 21 days, 2 weeks on 1 week off",patients with anaemia DLT,0%
C[C@@H]1OC(=O)NN=C1c1ccc(-c2ccc(F)cc2)c(C(F)(F)F)c1,"phase I trial, refers to: Pneumonitis all grades",human patients,5 mg loading then 0.25 mg daily,patients with adverse event,0%

# For quick reference, copied from above:
SMILES,test,test system,setting,quantity,value
CNC(=O)c1cc(Oc2ccc(NC(=O)Nc3cc(C(C)(C)C)nn3-c3ccc4ncccc4c3)c(F)c2)ccn1,,"human, trial","oral, dose not given, all doses",patients with related serious Pancreatitis AE,2%
